Assay results pooled from the literature.
Each numbered part is a random draw from the data of one study; scales do not carry over between parts.
Sequence of UniProt P35916 (whole entry, looked up): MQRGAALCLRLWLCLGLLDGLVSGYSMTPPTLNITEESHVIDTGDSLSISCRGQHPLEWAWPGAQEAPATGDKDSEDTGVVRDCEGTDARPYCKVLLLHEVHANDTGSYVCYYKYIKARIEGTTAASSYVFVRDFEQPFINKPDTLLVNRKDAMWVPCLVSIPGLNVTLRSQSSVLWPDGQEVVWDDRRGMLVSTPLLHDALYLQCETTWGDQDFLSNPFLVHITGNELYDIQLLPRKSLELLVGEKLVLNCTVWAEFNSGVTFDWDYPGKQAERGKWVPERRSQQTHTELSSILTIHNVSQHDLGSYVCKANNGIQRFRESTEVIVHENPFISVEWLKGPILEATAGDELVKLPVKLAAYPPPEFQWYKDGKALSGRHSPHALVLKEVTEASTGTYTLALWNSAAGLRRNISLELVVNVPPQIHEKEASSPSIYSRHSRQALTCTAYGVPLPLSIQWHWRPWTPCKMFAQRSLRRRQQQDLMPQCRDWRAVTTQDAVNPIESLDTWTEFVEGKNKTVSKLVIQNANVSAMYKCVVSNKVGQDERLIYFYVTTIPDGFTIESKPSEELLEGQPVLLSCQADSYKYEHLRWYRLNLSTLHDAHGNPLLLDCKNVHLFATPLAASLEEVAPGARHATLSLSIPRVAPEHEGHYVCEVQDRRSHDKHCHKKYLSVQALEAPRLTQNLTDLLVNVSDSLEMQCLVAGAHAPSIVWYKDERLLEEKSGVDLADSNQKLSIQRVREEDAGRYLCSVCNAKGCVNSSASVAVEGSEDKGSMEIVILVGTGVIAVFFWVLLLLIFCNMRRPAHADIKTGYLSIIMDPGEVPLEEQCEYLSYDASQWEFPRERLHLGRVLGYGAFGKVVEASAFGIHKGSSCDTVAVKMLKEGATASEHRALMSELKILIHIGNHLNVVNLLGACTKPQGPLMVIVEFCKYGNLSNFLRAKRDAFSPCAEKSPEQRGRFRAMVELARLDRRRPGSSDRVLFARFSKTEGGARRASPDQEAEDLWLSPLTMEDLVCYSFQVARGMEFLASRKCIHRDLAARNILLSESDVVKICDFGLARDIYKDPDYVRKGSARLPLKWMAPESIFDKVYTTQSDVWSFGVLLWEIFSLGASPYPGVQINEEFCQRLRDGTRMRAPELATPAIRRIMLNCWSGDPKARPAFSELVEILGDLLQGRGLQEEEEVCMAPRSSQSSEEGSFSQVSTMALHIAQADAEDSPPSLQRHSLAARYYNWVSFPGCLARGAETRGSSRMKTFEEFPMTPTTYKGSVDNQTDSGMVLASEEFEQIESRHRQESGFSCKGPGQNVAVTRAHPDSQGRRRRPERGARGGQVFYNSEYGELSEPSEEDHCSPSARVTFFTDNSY
Sequence of UniProt P42336 (whole entry, unmodified, looked up): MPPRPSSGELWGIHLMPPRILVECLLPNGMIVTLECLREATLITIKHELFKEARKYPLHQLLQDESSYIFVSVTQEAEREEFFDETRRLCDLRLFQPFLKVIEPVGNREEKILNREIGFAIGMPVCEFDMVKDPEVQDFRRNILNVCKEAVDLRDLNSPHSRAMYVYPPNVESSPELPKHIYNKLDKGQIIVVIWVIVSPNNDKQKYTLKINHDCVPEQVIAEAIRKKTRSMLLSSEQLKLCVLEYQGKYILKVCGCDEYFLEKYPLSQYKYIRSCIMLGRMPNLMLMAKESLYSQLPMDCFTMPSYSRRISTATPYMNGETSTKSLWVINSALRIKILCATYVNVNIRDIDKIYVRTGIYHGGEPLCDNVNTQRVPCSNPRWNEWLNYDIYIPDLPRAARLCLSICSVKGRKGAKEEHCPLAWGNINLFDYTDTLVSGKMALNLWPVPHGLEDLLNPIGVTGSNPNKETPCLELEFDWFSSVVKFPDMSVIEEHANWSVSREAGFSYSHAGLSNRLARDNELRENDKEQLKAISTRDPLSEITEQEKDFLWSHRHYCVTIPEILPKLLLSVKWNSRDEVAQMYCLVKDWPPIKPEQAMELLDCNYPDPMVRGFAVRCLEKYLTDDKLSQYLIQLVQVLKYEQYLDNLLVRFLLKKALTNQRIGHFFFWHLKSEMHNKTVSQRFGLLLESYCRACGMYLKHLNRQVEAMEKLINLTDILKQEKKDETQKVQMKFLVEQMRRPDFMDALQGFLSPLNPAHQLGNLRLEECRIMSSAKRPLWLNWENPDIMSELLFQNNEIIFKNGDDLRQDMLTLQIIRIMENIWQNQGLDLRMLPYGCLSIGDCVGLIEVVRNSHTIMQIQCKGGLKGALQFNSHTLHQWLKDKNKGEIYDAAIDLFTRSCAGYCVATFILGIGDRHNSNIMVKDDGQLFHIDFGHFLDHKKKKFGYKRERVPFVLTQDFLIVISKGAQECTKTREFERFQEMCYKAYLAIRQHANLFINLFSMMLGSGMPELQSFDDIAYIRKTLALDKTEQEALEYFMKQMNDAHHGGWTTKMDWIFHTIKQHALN
Sequence of UniProt Q9UIK4 (whole entry, looked up): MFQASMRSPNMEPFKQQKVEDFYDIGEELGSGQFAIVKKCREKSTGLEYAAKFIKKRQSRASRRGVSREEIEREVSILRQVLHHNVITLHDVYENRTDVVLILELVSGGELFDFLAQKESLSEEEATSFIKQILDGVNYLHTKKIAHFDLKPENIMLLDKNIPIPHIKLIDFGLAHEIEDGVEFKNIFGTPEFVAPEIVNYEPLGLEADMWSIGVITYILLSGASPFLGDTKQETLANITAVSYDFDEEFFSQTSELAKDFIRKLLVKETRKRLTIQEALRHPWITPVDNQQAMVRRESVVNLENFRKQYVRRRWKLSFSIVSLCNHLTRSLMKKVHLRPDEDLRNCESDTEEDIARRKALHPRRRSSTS
Sequence of UniProt O95835 (whole entry, looked up): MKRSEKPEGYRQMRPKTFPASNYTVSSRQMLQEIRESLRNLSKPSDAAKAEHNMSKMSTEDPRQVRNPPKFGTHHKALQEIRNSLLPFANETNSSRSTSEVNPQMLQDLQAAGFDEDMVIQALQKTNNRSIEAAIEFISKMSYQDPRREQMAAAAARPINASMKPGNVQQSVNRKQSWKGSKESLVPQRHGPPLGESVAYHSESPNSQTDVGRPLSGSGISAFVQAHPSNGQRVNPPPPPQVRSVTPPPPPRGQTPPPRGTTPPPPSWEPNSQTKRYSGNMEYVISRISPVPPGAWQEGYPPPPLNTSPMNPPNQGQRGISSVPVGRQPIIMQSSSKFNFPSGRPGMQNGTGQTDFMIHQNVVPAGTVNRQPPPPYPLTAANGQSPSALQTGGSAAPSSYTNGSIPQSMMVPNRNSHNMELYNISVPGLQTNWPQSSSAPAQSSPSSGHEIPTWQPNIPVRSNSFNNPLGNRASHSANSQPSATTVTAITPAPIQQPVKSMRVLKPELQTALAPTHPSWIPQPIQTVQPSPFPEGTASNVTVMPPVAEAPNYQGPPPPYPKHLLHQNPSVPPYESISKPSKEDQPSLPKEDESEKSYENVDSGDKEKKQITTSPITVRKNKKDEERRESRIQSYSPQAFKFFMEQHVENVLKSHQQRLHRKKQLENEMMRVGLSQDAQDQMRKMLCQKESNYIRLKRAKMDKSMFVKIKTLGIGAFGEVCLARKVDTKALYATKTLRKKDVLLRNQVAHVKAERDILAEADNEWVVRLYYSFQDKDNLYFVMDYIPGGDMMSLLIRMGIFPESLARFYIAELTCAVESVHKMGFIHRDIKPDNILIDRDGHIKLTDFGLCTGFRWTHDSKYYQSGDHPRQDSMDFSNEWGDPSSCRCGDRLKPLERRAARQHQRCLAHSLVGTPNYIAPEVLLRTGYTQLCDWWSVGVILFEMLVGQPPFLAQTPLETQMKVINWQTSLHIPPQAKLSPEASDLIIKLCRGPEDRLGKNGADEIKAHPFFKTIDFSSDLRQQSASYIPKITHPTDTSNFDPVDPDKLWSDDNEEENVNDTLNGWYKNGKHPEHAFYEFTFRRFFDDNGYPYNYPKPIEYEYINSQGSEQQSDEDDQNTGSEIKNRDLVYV
Sequence of UniProt Q9H4B4 (whole entry, looked up): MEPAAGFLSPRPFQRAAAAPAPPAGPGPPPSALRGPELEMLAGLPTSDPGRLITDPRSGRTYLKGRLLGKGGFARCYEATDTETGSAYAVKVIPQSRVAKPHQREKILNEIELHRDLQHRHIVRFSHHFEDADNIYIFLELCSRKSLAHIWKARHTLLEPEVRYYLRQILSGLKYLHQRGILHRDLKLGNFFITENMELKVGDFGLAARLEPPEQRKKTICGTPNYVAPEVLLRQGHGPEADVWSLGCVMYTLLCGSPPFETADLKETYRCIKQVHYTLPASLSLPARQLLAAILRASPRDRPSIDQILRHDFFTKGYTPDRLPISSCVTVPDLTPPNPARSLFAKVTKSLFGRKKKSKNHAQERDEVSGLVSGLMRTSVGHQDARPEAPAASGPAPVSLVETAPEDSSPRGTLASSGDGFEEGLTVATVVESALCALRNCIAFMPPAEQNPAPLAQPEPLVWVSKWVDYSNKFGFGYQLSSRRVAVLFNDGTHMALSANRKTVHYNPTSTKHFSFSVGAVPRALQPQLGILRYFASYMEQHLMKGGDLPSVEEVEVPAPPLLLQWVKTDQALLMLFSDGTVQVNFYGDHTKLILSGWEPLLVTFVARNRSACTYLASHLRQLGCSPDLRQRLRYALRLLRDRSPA

Set 1 — species: human; sample: microsomes or S9; concentration: 2 µM; time: 0.5 h
With `Cc1nc2nc(N3C(=O)CCC3=O)nn2c(C)c1Cl` the remaining compound was 69.9%.
With `Cc1c(C(=O)NCC(C)c2ccccc2)oc2ccc3c(c12)C=CC1(CCCC1)O3` (stereo not shown) the remaining compound was 35.5%.
The remaining compound of `CN(C)S(=O)(=O)CCCS(=O)(=O)N(C)Cc1ccc(Br)cc1` is reported as 49.4%.

Set 2 — technique: protein-binding microarray; molecule type: double-stranded DNA, one strand shown; sample: in vitro; concentration: 2540 nM top; notes: 60-bp whole probe; added: salmon DNA 0.4 mg/ml; relative to: random background probes; direction: higher = stronger binding; shared flanks, not repeated: GCCTAGCAC … GTCTTGATTCGCTTGACGCTGCTG
Target: Interferon regulatory factor 3, full length, phosphomimetic (IRF3, Homo sapiens, UniProt Q14653, residues 1-427, S386D/S396D/S398D/S402D/T404D/S405D)
Target sequence (chain): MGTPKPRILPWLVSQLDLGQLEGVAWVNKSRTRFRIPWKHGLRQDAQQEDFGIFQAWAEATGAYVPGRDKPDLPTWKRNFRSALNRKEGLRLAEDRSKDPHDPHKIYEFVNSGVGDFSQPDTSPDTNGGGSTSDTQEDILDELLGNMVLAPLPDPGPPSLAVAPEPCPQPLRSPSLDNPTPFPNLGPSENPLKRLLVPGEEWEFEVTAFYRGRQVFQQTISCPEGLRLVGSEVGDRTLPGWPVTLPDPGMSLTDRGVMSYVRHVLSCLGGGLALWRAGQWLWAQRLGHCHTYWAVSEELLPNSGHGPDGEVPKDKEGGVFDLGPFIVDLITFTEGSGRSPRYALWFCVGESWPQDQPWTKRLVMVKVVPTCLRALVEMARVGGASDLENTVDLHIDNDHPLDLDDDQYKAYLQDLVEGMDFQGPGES
Under “fitted relative affinity”, `ATATATATTATATATTTATGTGTGCTA` is recorded as 0.746 z-score.
For `GACGAACTGAGTTTCGAGGCGTGCTAG`, “fitted relative affinity” read 0.761 z-score.
For `TTAGGACTCCTTCTCCTTTAGTGCTAG`, “fitted relative affinity” read 2.03 z-score.
`TCATATTTAAGCTCCTATACTGTGCTA` — result for “fitted relative affinity”: 0.725 z-score.
`TCACATATTTGTTTCCAACTGTGCTAG`: “fitted relative affinity” 3.15 z-score.
For `ACCCATCTCCAGTAGCCTAGCGTGCTA`, “fitted relative affinity” read 1.91 z-score.
`GACGGTTTCGAACTGGGGACGTGCTAG`: “fitted relative affinity” 3.29 z-score.
`TTAGGTTTCGGTCCCGGTTAGTGCTAG` — result for “fitted relative affinity”: 6.09 z-score.

Set 3 — cell line: HaCaT; concentration: 100 µM; time: 36 h
`CN1CCN(C2=Nc3ccccc3Oc3ccc(Cl)cc32)CC1` gave a viability of 7.59%.
With `CC(=O)N(O)CCCCCNC(=O)CCC(=O)N(O)CCCCCNC(=O)CCC(=O)N(O)CCCCCN` the viability was 31.8%.
`CCN1CCN(Cc2ccc(Nc3ncc(F)c(-c4cc(F)c5nc(C)n(C(C)C)c5c4)n3)nc2)CC1` gave a viability of 82.1%.
`S=P(N1CC1)(N1CC1)N1CC1` gave a viability of 48.7%.

Set 4 — technique: competition protein-binding microarray; molecule type: double-stranded DNA, one strand shown; sample: in vitro; concentration: 2 µM; added: Pho4 competitor, 0.05 µM; direction: higher = stronger binding
Target: Centromere-binding protein 1, full length, His-tagged (CBF1, Saccharomyces cerevisiae, UniProt P17106, residues 1-351)
Sequence of UniProt P17106 (whole entry, looked up): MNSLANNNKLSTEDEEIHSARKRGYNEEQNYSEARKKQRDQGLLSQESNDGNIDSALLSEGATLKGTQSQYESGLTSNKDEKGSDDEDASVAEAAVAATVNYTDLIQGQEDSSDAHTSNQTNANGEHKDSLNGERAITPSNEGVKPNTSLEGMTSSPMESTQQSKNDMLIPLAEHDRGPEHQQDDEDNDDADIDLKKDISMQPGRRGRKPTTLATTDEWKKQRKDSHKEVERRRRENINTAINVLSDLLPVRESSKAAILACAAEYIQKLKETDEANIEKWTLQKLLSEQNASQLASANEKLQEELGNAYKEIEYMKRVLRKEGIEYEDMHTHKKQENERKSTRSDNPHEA
Notes: whole 60-bp probe, lowest competitor level
The fluorescence intensity of `GTCTTGTCTCATTGTTCTGTGGGTGTCCCCACTTCAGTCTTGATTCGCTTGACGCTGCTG` is reported as 70.9 a.u.
With `TGCGCAACAACTTTTCACGTGATCTTATGTCTAGAAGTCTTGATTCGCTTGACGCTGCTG` the fluorescence intensity was 7320 a.u.
The fluorescence intensity of `AAAGCGGTAATTTTTCACGTGTCATCACATATCTATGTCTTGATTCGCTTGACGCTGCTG` is reported as 927 a.u.
`CTTCTGTAAATTTGCTTTGTGGGTGGACGCGCCCCGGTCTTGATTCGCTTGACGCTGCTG` gave a fluorescence intensity of 67.9 a.u.
With `CTGTCGAAGAGTAGTCACCTGTTCCAACTAAGATAGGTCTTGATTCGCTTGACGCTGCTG` the fluorescence intensity was 438 a.u.
For `CGGGGTTAAGTTTGTAAGGTGGGTGGCTTGCAGCAGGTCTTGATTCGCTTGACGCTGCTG`, the fluorescence intensity was 66.8 a.u.
The fluorescence intensity of `ATTTATTTACCCCATCACGTGCAAAAATTGAACCTGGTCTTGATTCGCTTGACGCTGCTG` is reported as 6680 a.u.
`CGGGGTTAAGTTTGTCACGATACTTGCTTGCAGCAGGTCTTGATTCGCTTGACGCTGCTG` has a fluorescence intensity of 169 a.u.

Set 5 — observed: cell-free assay; technique: competition with immobilised ligand; concentration: 1 µM
SMILES: Cc1c(NC(=O)c2cc(C(N)=O)nc3cc(F)ccc23)c(C(F)(F)F)nn1Cc1ccc(C(C)(C)C)cc1
The remaining binding was 100% (LATS1 (Homo sapiens, UniProt O95835)).
The remaining binding was 87% (PRKACA (Homo sapiens, UniProt P17612)).
The remaining binding was 91% (FLT4 (Homo sapiens, UniProt P35916)).
The remaining binding was 100% (CSF1R (Homo sapiens, UniProt P07333)).
The remaining binding was 100% (PTK6 (Homo sapiens, UniProt Q13882)).
The remaining binding was 94% (PLK3 (Homo sapiens, UniProt Q9H4B4)).
It gave 98% for remaining binding (MAP4K3 (Homo sapiens, UniProt Q8IVH8)).
The remaining binding was 100% (BUB1 (Homo sapiens, UniProt O43683)).
The remaining binding was 72% (PI4KB (Homo sapiens, UniProt Q9UBF8)).
It gave 100% for remaining binding (MAPK4 (Homo sapiens, UniProt P31152)).
For PIK3CA (Homo sapiens, UniProt P42336, H1047L): remaining binding read 100%.
BRAF (Homo sapiens, UniProt P15056) — remaining binding: 81%.
The remaining binding was 86% (MERTK (Homo sapiens, UniProt Q12866)).
ACVR2B (Homo sapiens, UniProt Q13705) — remaining binding: 100%.
It gave 100% for remaining binding (MAP3K5 (Homo sapiens, UniProt Q99683)).
The remaining binding was 100% (PIP5K1A (Homo sapiens, UniProt Q99755)).
It gave 76% for remaining binding (DAPK2 (Homo sapiens, UniProt Q9UIK4)).

For quick reference, copied from above (set 4):
With `TGCGCAACAACTTTTCACGTGATCTTATGTCTAGAAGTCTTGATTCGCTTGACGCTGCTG` the fluorescence intensity was 7320 a.u.
The fluorescence intensity of `AAAGCGGTAATTTTTCACGTGTCATCACATATCTATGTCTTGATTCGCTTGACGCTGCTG` is reported as 927 a.u.
`CTTCTGTAAATTTGCTTTGTGGGTGGACGCGCCCCGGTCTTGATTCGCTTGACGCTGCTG` gave a fluorescence intensity of 67.9 a.u.
With `CTGTCGAAGAGTAGTCACCTGTTCCAACTAAGATAGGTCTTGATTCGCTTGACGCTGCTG` the fluorescence intensity was 438 a.u.
For `CGGGGTTAAGTTTGTAAGGTGGGTGGCTTGCAGCAGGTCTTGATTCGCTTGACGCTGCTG`, the fluorescence intensity was 66.8 a.u.
